Results from different studies.
± gives the spread as reported.
CHRM1: Muscarinic acetylcholine receptor M1 (CHRM1, Homo sapiens, UniProt P11229)
Sequence of UniProt P11229 (whole entry, looked up): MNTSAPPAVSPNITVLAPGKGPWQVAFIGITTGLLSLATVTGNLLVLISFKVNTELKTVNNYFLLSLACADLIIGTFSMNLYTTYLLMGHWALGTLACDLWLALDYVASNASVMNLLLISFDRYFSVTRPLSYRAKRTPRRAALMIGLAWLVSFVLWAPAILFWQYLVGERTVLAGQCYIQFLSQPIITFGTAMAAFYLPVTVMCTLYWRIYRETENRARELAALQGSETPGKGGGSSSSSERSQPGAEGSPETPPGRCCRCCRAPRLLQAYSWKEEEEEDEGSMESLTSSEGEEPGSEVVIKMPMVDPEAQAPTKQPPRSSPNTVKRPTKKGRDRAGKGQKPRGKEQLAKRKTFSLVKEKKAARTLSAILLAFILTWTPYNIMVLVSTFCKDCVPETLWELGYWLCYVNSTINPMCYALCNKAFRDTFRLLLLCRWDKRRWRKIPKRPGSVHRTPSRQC
T1: ssRNA, CUG repeat (Homo sapiens); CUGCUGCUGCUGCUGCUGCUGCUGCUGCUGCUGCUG
T2: DNA hairpin, HEG linker; GTTATATCTTGATATAAC
T3: DNA hairpin, hairpin; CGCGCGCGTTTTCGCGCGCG
Sequence of UniProt P08173 (whole entry, looked up): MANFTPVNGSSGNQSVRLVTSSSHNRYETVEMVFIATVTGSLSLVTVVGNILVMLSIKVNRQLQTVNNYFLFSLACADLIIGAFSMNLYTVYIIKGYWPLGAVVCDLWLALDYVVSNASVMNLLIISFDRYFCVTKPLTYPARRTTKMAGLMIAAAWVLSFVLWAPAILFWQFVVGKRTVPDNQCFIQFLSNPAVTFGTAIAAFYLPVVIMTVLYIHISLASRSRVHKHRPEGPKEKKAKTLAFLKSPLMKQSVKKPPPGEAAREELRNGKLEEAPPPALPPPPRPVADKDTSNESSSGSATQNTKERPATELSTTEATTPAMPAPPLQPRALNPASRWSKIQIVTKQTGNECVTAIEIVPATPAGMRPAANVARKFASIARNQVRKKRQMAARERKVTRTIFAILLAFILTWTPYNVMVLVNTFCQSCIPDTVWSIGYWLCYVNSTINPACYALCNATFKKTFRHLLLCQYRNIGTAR
Sequence of UniProt Q9Y5Y9 (whole entry, looked up): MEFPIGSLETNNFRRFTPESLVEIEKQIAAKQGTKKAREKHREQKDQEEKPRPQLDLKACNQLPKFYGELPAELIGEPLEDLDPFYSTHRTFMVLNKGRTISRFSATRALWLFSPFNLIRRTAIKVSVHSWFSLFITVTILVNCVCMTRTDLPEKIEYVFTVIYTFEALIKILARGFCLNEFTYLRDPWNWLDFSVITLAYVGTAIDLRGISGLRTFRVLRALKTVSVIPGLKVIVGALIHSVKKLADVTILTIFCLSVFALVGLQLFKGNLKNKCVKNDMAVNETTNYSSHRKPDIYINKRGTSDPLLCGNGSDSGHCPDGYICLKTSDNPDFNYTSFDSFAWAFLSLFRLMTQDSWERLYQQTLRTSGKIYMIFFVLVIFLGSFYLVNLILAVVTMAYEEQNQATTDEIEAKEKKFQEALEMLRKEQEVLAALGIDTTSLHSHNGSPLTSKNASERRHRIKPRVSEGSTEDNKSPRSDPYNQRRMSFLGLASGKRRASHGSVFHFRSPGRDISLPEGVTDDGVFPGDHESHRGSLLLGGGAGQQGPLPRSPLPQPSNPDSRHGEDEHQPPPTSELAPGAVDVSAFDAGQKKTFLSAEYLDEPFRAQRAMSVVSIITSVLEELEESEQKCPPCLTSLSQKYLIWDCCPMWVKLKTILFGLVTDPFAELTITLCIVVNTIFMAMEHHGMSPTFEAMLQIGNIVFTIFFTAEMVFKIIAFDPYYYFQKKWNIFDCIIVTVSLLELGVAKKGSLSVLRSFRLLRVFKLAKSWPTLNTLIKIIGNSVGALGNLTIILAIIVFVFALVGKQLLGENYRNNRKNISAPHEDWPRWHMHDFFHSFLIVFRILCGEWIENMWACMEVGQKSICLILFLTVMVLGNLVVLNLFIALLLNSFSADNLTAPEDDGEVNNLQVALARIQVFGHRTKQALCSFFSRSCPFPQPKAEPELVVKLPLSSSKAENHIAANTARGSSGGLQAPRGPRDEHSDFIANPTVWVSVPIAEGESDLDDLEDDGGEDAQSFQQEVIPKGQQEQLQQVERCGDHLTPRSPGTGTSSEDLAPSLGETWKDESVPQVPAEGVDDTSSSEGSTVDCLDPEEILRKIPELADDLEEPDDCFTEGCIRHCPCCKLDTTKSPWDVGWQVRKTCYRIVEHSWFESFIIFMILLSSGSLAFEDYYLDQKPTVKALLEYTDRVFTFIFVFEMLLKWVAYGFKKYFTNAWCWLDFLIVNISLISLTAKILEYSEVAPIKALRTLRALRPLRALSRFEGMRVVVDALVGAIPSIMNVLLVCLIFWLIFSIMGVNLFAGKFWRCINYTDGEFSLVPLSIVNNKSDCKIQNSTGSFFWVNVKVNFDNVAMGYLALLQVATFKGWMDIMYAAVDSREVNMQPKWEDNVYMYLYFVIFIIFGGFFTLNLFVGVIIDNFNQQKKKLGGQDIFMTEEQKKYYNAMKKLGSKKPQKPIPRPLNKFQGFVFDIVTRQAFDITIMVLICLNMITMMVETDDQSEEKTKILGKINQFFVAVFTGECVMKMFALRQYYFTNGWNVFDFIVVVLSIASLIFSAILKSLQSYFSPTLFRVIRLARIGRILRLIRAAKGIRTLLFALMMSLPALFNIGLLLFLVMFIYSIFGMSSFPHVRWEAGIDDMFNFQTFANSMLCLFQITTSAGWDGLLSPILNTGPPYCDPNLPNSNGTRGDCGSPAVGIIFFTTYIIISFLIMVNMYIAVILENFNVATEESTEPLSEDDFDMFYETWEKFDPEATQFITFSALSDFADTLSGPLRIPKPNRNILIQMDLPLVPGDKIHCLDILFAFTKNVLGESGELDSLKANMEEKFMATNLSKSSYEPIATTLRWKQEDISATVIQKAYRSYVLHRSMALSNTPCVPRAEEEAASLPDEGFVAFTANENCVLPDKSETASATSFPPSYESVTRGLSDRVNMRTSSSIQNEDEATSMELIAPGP
Sequence of UniProt P22309 (whole entry, looked up): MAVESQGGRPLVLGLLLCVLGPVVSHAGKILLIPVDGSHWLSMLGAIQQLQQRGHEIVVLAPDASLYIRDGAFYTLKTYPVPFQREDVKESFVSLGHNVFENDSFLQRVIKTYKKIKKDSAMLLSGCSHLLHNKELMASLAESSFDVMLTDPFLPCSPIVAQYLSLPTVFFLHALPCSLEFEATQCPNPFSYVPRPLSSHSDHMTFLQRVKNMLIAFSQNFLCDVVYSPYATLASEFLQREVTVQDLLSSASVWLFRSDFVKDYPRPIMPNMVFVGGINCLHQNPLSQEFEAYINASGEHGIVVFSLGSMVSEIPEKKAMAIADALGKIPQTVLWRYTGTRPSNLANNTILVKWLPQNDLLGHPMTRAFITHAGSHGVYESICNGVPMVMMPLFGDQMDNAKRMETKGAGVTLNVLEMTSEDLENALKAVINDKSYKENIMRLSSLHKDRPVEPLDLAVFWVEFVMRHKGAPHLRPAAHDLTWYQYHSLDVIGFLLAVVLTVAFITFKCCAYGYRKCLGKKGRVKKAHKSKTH
Sequence of UniProt P12369 (whole entry, unmodified, looked up): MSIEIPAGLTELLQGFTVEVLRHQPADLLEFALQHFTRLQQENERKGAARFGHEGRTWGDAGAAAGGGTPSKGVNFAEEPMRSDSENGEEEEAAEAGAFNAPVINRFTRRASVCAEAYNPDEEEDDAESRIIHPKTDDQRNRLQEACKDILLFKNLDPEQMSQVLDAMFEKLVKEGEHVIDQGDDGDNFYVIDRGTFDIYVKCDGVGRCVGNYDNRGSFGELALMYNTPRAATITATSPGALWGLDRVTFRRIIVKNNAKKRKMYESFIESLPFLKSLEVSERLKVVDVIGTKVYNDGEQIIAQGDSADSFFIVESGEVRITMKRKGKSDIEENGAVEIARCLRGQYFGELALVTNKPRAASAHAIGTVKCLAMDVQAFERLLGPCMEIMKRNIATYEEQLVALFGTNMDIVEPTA

`Cn1ncc2cc(COc3ccccc3-c3cc(=O)n(C4CCCCC4O)cn3)ccc21` (stereo not drawn): “change in baseline activity” 90.6 ± 2.3 (CHRM1; allosteric agonist, IP1 accumulation; CHO-M1 cells; 10 µM, unit not given; reference: maximum ACh response).
`N#Cc1c(N2CCCC2)nc(N)c2c(N)nc(N3CCCC3)cc12` gave a Kd of 0.125 µM (T1, ssRNA, CUG repeat (Homo sapiens); fluorescence anisotropy; NaCl 185 mM, Hill plot).
`C[n+]1cc(NC(=O)c2ccc3ccc4ccc(C(=O)Nc5cc6ccccc6[n+](C)c5)nc4c3n2)cc2ccccc21` gave an IC50 of > 2.5 µM (T2, DNA hairpin, HEG linker; Thiazole Orange displacement, competitor, fluorescent indicator displacement; pH 7.2, KCl 100 mM).
With `O=C(O)[C@H]1O[C@@H](Oc2c(-c3ccc(O)cc3)oc3cc(O)ccc3c2=O)[C@H](O)[C@@H](O)[C@@H]1O` the Ksi was 0.86 ± 0.25 µM (UGT1A1 (Homo sapiens, UniProt P22309); glucuronidation, substrate, item: 3,7,4'-trihydroxyflavone glucuronide).
The koff of `CC[C@H](C)[C@H](NC(=O)[C@H](CCC(=O)O)NC(=O)[C@@H](NC(=O)[C@H](Cc1ccccc1)NC(=O)[C@H](COP(=O)(O)O)NC(=O)[C@H](CC(=O)O)NC(=O)[C@H](CCC(=O)O)NC(=O)[C@H](CO)NC(=O)[C@H](CO)NC(=O)CNC(=O)[C@H](CO)NC(=O)[C@H](CO)NC(=O)[C@H](CC(N)=O)NC(=O)CCCCCNC(=S)Nc1ccc2c(c1)C(=O)OC21c2ccc(O)cc2Oc2cc(O)ccc21)C(C)C)C(=O)N[C@@H](CCCNC(=N)N)C(=O)N[C@@H](CCSC)C(=O)N[C@@H](C)C(=O)N[C@@H](CCC(=O)O)C(=O)O` is reported as 0.377 s⁻¹ (Microtubule-associated protein 1 light chain 3 beta (Homo sapiens, UniProt Q9GZQ8); binding, surface plasmon resonance; with: OPTN 169-185 peptide).
With `COc1cc2nc(N(C)CCCNC(=O)C3CCCO3)nc(N)c2cc1OC` (stereo not drawn) the Hill coefficient was 0.71 (SCN5A (Homo sapiens, UniProt Q14524); sodium current, inhibitor, IonWorks Quattro).
`c1cc(Nc2ccc(NC3=NCCN3)cc2)ccc1NC1=NCCN1`: binding “binds weakly” (T3, DNA hairpin, hairpin; SPR; pH 6.25, 25 °C, Na+ 100 mM, too weak to fit).
`O=C(c1ccc(COc2ccccc2-c2cc(=O)n(C3CCCCC3O)cn2)cc1)N1CCCCC1` (stereo not drawn) — result for “ΔpEC50 of ACh”: 0.08 ± 0.12 log units (CHRM1; positive allosteric modulator, IP1 accumulation; CHO-M1 cells; 1 µM, 60 min, 37 °C, with: ACh; reference: ACh alone, higher = stronger potentiation).
`COCCN1CCN(C(C)C(=O)Nc2c(C)csc2C(=O)OC)CC1` (stereo not drawn): “capacity factor k′” 67 (SCN10A (Homo sapiens, UniProt Q9Y5Y9); cell membrane chromatography; higher = stronger binding).
For `COc1ccc(C)c2sc(NC(=O)c3ccc(F)c(F)c3)nc12`, activity read “inactive” (CHRM4 (Homo sapiens, UniProt P08173); calcium mobilization, positive allosteric modulator; CHO expressing hM4 and Gqi5; concentration not given, with: acetylcholine EC20).
`Cc1ccc(COc2ccccc2-c2cc(=O)n(C3CCCCC3O)cn2)cc1` (stereo not drawn) — result for “ΔpEC50 of ACh”: 1.32 ± 0.2 log units (CHRM1; positive allosteric modulator, IP1 accumulation; CHO-M1 cells; 10 µM, 60 min, 37 °C, with: ACh; reference: ACh alone, higher = stronger potentiation).
The selectivity ratio of `CC(C)(C)NC(=O)Nc1ncnc2c1ncn2[C@@H]1O[C@@H]2COP(=O)(O)O[C@H]2[C@H]1O` is reported as 4.9 (cAMP-dependent protein kinase type II-beta regulatory subunit, holoenzyme with catalytic subunit (Prkar2b, Rattus norvegicus, UniProt P12369, S112A); PKA holoenzyme activation, activator, fluorescence anisotropy; reference: RIIβ over RIα, higher = RIIβ-selective).
For `CIKVAVS`, the maximum inhibition was 0% (human polyclonal IgM rheumatoid factor; binding to mAb II-481; peptide; combined CDR peptides, serum ABR).
`CNC(=O)c1ccc(COc2ccccc2-c2cc(=O)n(C3CCCCC3O)cn2)cc1` (stereo not drawn) — result for “change in baseline activity”: 102 ± 4 (CHRM1; allosteric agonist, IP1 accumulation; CHO-M1 cells; 10 µM, unit not given; reference: maximum ACh response).
Under “concentration for full EtBr displacement”, `C[C@H](N)C(=O)N[C@@H](C)C(=O)N[C@@H](CCCCN)C(=O)N[C@@H](CCCCN)C(=O)N[C@@H](C)C(=O)N[C@@H](C)C(=O)N[C@@H](C)C(=O)N[C@@H](CCCCN)C(=O)N[C@@H](CCCCN)C(=O)N[C@@H](C)C(=O)N[C@@H](C)C(=O)N[C@@H](C)C(=O)N[C@@H](CCCCN)C(=O)N[C@@H](CCCCN)C(=O)N[C@@H](C)C(=O)N[C@@H](C)C(=O)N[C@@H](C)C(=O)N[C@@H](CCCCN)C(=O)N[C@@H](CCCCN)C(=O)N[C@@H](C)C(N)=O` is recorded as 15 µM (calf thymus DNA; DNA binding; ctDNA 100 µM, with: ethidium bromide 4 µM).

Excerpt of the above:
`Cn1ncc2cc(COc3ccccc3-c3cc(=O)n(C4CCCCC4O)cn3)ccc21` (stereo not drawn): “change in baseline activity” 90.6 ± 2.3 (CHRM1; allosteric agonist, IP1 accumulation; CHO-M1 cells; 10 µM, unit not given; reference: maximum ACh response).
`c1cc(Nc2ccc(NC3=NCCN3)cc2)ccc1NC1=NCCN1`: binding “binds weakly” (T3, DNA hairpin, hairpin; SPR; pH 6.25, 25 °C, Na+ 100 mM, too weak to fit).
